Experimental data collected from several papers.
Each line is one published result; not all experiments were run side by side. Values joined by “and” are separate records of one study, mostly repeats; a detail may differ. ± gives the spread as reported.

Structure (SMILES)	cell line	test	setting	scale	endpoint	value
C[C@H]1Oc2cc(cnc2N)-c2c(nn(C)c2C#N)CN(C)C(=O)c2ccc(F)cc21	HD-MB03		168 h		IC50	inactive
CC1(C)COc2ccc(F)cc2CN2c3nc4c(cnn4cc3OC[C@H]2C(F)F)C(=O)N1	NCI-H3122 (EML4-ALK variant 1)	cell viability			Emax	82.9%
Cc1cnc(NC2CCOCC2)nc1-n1cnc(C(=O)NC(CN)c2cc(F)cc(Cl)c2)c1 (stereo not drawn)	A-375	flow cytometry	1 µM, 24 h		G1 phase cells	93.4%
Nc1cc(C(F)(F)F)c(-c2cc(N3CCOCC3)nc(N3CCOCC3)n2)cn1	HD-MB03	cell growth	168 h, single agent		IC50	0.512 µM
Cc1ncc([N+](=O)[O-])n1CC(O)CCl (stereo not drawn)	primary rat hippocampal/cortical neuron-glia cultures		1 µM, added: 1 µM α-synuclein oligomers		reversal of trafficking deficit	-13.1%
O=C(/C=C/C=C/C=C/C1CCCCC1)NC1=C[C@@](O)(/C=C/C=C/C=C/C(=O)NC2=C(O)CCC2=O)[C@@H]2O[C@@H]2C1=O	HT115	cell growth, CellTiter-Glo	78 h		GI50	12.7 µM
CSCC[C@H](NC(=O)[C@H](Cc1ccc(OS(=O)(=O)O)cc1)NC(=O)[C@@H](N)CC(=O)O)C(=O)NCC(=O)N[C@@H](Cc1c[nH]c2ccccc12)C(=O)N[C@@H](CCSC)C(=O)N[C@@H](CC(=O)O)C(=O)N[C@@H](Cc1ccccc1)C(N)=O	HEK293T control virus	agonist, GloSensor cAMP	2000 nM, no receptor expressed	higher = more cAMP	cAMP accumulation	0.222 a.u.
CO[C@H]1C[C@@H]2CC[C@@H](C)[C@@](O)(O2)C(=O)C(=O)N2CCCC[C@H]2C(=O)O[C@H]([C@H](C)C[C@@H]2CC[C@@H](OC(=O)C(C)(CO)CO)[C@H](OC)C2)CC(=O)[C@H](C)/C=C(\C)[C@@H](O)[C@@H](OC)C(=O)[C@H](C)C[C@H](C)/C=C/C=C/C=C/1C	HD-MB03	cell growth	168 h, DMSO		IC50	0.28 µM
CCn1cc(-c2cc(Cn3ccoc3=N)cc3c2CCN([C@@H](C)c2cc(OC)ccn2)C3=O)c(C(F)(F)F)n1	NCI-H596	cell growth, inhibitor	120 h		EC50	0.0162 µM
Cc1c(C)c2c(c(C)c1O)CCC(C)(COc1ccc(CC3SC(=O)NC3=O)cc1)O2 (stereo not drawn)	hepatocytes, iPSC-derived, W2 line	cell viability, RealTime-Glo MT	24 h, differentiation day 23		IC50	57 µM
COc1cc(/C=C/C(=O)N2CCC=CC2=O)cc(OC)c1OC	MDA-MB-468	qRT-PCR, item: HIF1A	30 µM, 6 h	reference: time zero	mRNA level	124 ± 9.1%
CC/C(=N\NC(=O)NCc1cccc(O)c1)c1ccc(O)c(C)c1O	SK-OV-3	Western blot, item: LATS	5 µM, 1 h, 2D culture, unit not given	reference: β-actin	protein level	0.68 ± 0.47
CC[N+](C)(CC)CCOC(=O)C(O)(c1ccccc1)C1CCCCC1 (stereo not drawn)	primary rat hippocampal/cortical neuron-glia cultures		1 µM, added: 1 µM α-synuclein oligomers		reversal of trafficking deficit	-8.78%
COc1cnc2cccc(N3CCc4c(cc(Cn5ccnc5C)cc4-c4cn(C)nc4C(F)(F)F)C3=O)c2c1	AU565	cell growth, inhibitor	120 h		EC50	1.97 µM
Cn1c(Nc2nc3ccc(C(F)(F)F)cc3s2)nc2cc(C(=O)NCCOCCO)ccc21	SH-SY5Y	RNA-seq, item: VCL mRNA	5 µM, 5 h	reference: untreated cells	fold change	1.58
CCc1c2c(nc3ccc(O)cc13)-c1cc3c(c(=O)n1C2)COC(=O)[C@]3(O)CC	HD-MB03	cell growth	DMSO		IC50	0.000979 µM
Nc1cccc2c1C(=O)N(C1CCC(=O)NC1=O)C2=O (stereo not drawn)	patient CD138+ cells	flow cytometry, item: annexin V and PI	1 µM, autologous CD8+ T-cell co-culture		apoptotic cells	5.43% and 5.67% and 8.57% and 12.6%
Cc1ccc(CNC(=O)Cn2cc(CSc3nc4ccccc4[nH]3)nn2)cc1	Caco-2	MTT	7.81 ppm		cytotoxicity	49.3%
CC/C(=N\NC(=O)C(C)Nc1ccccc1)c1ccc(O)c(C)c1O (stereo not drawn)	SK-OV-3	Western blot, item: YAP	10 µM, 3 h, 2D culture, unit not given	reference: β-actin	protein level	1.56 ± 0.05
CCN(CCCOc1ccc2c(Nc3cc(CC(=O)Nc4cccc(F)c4)n[nH]3)ncnc2c1)CCOP(=O)(O)O	HD-MB03	cell growth	168 h, DMSO		IC50	0.297 µM
c1ccc2[nH]ccc2c1	HCT-8	RNA-seq, item: PDK4	concentration not given		mRNA level, LS mean	5.5 counts per million
COC(=O)C1CCN(C(=O)c2ccc(N(CCCO)Cc3cnc4nc(N)nc(N)c4n3)cc2)CC1	786-O	high-content imaging, item: MitoTracker Red uptake	10 µM		mitochondrial toxicity	-1.43%
CC(=O)O[C@H]1C(=O)[C@@]2(C)[C@H]([C@H](OC(=O)c3ccccc3)[C@]3(O)C[C@H](OC(=O)[C@H](O)[C@@H](NC(=O)c4ccccc4)c4ccccc4)C(C)=C1C3(C)C)[C@]1(OC(C)=O)CO[C@@H]1C[C@@H]2O	KB-C2 (P-gp overexpressing)	cell growth		reference: IC50 in KB-C2 over KB-3-1	fold resistance	506

Structure (SMILES)	cell line	test	setting	scale	endpoint	value
CCn1cc(-c2cc(Cn3ccnc3)cc3c2CCN([C@H](c2cc(OC)ccn2)C2CC2)C3=O)c(C(F)(F)F)n1	SCC-9	cell growth, inhibitor	120 h		EC50	> 30 µM
O=C(CCc1cc(C(=O)c2ccc(OC3CCCC3)cc2O)ccc1OCc1ccc2c(O)noc2c1)NCCOCCOCCOCCOCCOCCOCCNc1cccc2c1C(=O)N(C1CCC(=O)NC1=O)C2=O (stereo not drawn)	UMSCC1 cells	RT-qPCR, item: FOSL1 target genes SNAI2, BMI1	concentration not given, 16 h		mRNA level	inhibited
O=c1[nH]nc(OCCCc2ccc(Cl)cc2)c(NCc2cccnc2)c1Br	HEK-293T	RNA-seq GSEA, item: Hallmark androgen response	concentration not given	direction not given	normalized enrichment score	0.961
Cn1cc(-c2ccc(-c3cncc(Cl)c3N3CCC4(CCNC4=O)CC3)cc2)cn1	COLO 205	gene expression, microarray, item: CYR61 mRNA	concentration not given, 2 h	reference: untreated cells	log2 fold change	2.04
COc1ccc2c(c1)c(C1=C(c3c[nH]c4ccccc34)C(=O)NC1=O)cn2CCCN(C)C	H9c2	agonist	concentration not given, 20 min, A2B receptor-mediated, added: pertussis toxin overnight		ERK1/2 activation	inhibited
CC(=O)N1CCCC(N2C(=O)c3cccc(N)c3C2=O)C1 (stereo not drawn)	RAW 264.7	item: IL-6	30 µM, added: LPS		inhibition	11% and ~10%
C[C@H](Nc1ccc2c(c1)OCCn1cc(N3C(=O)OC[C@H]3C(F)F)nc1-2)C(N)=O	HGC-27	cell growth, CellTiter-Glo	120 h		Hill coefficient GR curve	1.08
CCCCc1oc2ccc(NS(C)(=O)=O)cc2c1C(=O)c1ccc(OCCCN(CCCC)CCCC)cc1	human embryonic stem cell aggregates	mRNA level, microarray, item: PRMT8	0.5 µM, 120 h	reference: untreated, up-regulated	fold change	2.3 fold
Nc1nc(N)c2nc(CNCc3ccc(Oc4ccccc4)cc3)cnc2n1	786-O	high-content imaging, item: MitoTracker Red uptake	10 µM		mitochondrial toxicity	-6.05 ± 11%
CCN1CCN(Cc2ccc(Nc3ncc(F)c(-c4cc(F)c5nc(C)n(C(C)C)c5c4)n3)nc2)CC1	HD-MB03	cell growth	168 h, DMSO		IC50	0.378 µM
CC(C)NCC(O)c1ccc(O)c(O)c1 (stereo not drawn)	mouse ventricular cardiomyocytes		dose not given, 0.375 s		sarcomere length	1.8 µm
C=Cc1c2[n-]c(c1C)/C=c1\[n-]/c(c(C)c1C=C)=C\c1[n-]c(c(CCC(=O)O)c1C)/C=c1\[n-]c(c(C)c1CCC(=O)O)=C2.[Sn+4]	SH-SY5Y	RNA-seq, item: IQGAP2 mRNA	5 µM, 5 h	reference: untreated cells	fold change	1.59
Cc1cc(Nc2ncc(Cl)c(Nc3ccccc3S(=O)(=O)C(C)C)n2)c(OC(C)C)cc1C1CCNCC1	CLB-BAR	phosphoproteomics LC-MS/MS, item: PDCD11 phosphorylation	200 nM, 60 min	reference: untreated	log2 fold change	-1.82
Cc1cc(NS(=O)(=O)c2ccc(NC(=O)/C(C#N)=C/c3ccc(N4CCCCC4)cc3)cc2)no1	HCT-116	wound healing	IC50, 4-24 h	reference: untreated	cell migration	decreased
COCCn1cc(COc2cccc(Cc3cnc(NC(=O)CSc4nc(-c5ccccc5)cc(-c5ccccc5)n4)s3)c2)nn1	HGC-27	cell viability, MTS	10 µM		inhibition	29 ± 7%
Cc1cccc(-c2[nH]c(CNc3ccccc3F)nc2-c2ccc3ncnn3c2)n1	MM1.S	XTT	2 µM	reference: untreated	viability	17%
CCOC(=O)CSc1nc(-c2ccc(Cl)cc2)c2c(NC(=O)c3ccccc3)nnc-2[nH]1	A549/ATCC	NCI60 SRB	10 µM		growth percent	106%
Cn1cc(Nc2nccc(-c3ccc4c(c3)CN(C3COC3)CC[C@H]4NC(=O)c3cn(C(C)(C)C)nn3)n2)cn1	mouse splenic B cells	item: AMPK signalling	30 mg/kg, IgD-activated in vivo	reference: vehicle, direction not given	pathway activation z-score	3.53
CCc1cc2c(cc1N1CCC(N3CCOCC3)CC1)C(C)(C)c1[nH]c3cc(C#N)ccc3c1C2=O	HD-MB03	cell growth	168 h, DMSO		IC50	0.585 µM
CC(=O)O[C@H]1C(=O)[C@@]2(C)[C@H]([C@H](OC(=O)c3ccccc3)[C@]3(O)C[C@H](OC(=O)[C@H](O)[C@@H](NC(=O)c4ccccc4)c4ccccc4)C(C)=C1C3(C)C)[C@]1(OC(C)=O)CO[C@@H]1C[C@@H]2O	CHP-212 resistant sublines, USP7 V517F heterozygous		0.01372 µM		viability	85.7%
COc1cc([C@@H]2c3cc4c(cc3[C@@H](O[C@@H]3O[C@@H]5CO[C@@H](C)O[C@H]5[C@H](O)[C@H]3O)[C@H]3COC(=O)[C@H]23)OCO4)cc(OC)c1O	HD-MB03	cell growth	168 h, DMSO		IC50	0.0462 µM
Cn1cnc2c(F)c(Nc3ccc(Br)cc3F)c(C(=O)NOCCO)cc21	A-375		0.1562 µM, 72 h		viability	46.9%
